Experimental data of several laboratories.
Numbered parts are unrelated; each lists some results of a single study. Substitutions count along the parent as printed.

Series 1
Target: ABI1, truncated, D143A, DHFR fusion (Arabidopsis thaliana)
Method: DHFR PCA, deep sequencing
Medium: yeast
Setting: methotrexate growth selection, single substitutions
Added: (+)-ABA 2500 µM
Reference: wild-type fitted maximum
Reading: higher = stronger binding
Starting sequence: PYL1, truncated, DHFR fusion (Arabidopsis thaliana); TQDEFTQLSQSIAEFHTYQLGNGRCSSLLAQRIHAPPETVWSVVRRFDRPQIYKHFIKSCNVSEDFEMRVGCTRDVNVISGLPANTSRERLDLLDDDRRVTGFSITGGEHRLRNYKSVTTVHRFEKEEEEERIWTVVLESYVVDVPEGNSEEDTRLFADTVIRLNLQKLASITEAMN; partner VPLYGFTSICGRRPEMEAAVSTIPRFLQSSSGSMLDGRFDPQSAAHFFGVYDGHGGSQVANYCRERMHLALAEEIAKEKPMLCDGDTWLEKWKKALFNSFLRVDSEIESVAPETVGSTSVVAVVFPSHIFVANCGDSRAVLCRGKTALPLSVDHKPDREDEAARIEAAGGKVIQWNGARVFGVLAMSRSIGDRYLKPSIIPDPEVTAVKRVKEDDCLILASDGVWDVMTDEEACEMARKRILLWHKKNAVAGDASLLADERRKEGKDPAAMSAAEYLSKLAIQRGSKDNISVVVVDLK
| Change | relative binding score |
| --- | --- |
| R46V | 94.7% |
| T1R | 97.9% |
| C72L | 93.6% |
| E125I | 108% |
| A13Q | 102% |
| E131R | 100% |
| I57D | 7.96% |
| P146W | 61.4% |

Series 2
Target: RING finger protein unkempt homolog, zinc fingers 1-6, GST-SBP tag (UNK, Homo sapiens, UniProt Q9C0B0, residues 30-357)
UniProt Q9C0B0, sequence (30-357, looked up): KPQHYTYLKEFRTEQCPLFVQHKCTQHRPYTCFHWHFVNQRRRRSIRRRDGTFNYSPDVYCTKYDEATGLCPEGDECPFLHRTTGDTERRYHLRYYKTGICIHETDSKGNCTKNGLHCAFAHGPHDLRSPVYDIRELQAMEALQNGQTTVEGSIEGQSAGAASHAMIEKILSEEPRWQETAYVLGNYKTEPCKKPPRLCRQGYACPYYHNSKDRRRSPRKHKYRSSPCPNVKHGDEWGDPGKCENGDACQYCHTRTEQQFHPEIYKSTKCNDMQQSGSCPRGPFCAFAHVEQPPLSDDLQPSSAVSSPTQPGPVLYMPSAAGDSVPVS
Method: RNA Bind-n-Seq
Form: RNA
Medium: in vitro
Tested at: not given
Setting: RNA with constant flanks, human and mouse sites, ends assumed
Reference: input RNA pool
Reading: higher = stronger binding
| Oligonucleotide | bound/input enrichment [ratio] |
| --- | --- |
| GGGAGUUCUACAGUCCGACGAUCAGAGAAAUGAGAAAGAAUCUCACACAAGAUGAGAUGCAAAGAAUGUCUACUAGAGUCCUUUUAGCCACUCUUUCCAUCCCUAUUACUCCUGAGCGUACGGAUAUUGCUCGACUUCUGGAUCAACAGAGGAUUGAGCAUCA | 0.189 |
| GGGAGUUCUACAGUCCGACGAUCGGACUUAUGGGGAGCCCGAGUCUGCCGGCCCGUCCAGGGCUGUCCGCCAGUCAGUGACUUCAUUCCCAGAUGCUGACGCUUUCCAUCACCAGGUGCAUGAUGACGAUCUUUUGUCUUCUUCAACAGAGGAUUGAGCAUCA | 0.226 |
| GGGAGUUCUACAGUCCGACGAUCCUCGAUUAUCUCAAGAGAGAGUGUGAAGCAAAGAGUGAAGUGAUGUUUUUUGCAGAAGCUACUAGUCACUUGGAAGAGAAGAAGAAAAAACGAAAAAACAGGAAAAGGAUGAUUUUAACACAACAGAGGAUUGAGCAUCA | 0.337 |
| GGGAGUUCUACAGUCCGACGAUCCCUAGUAAAGAUGUUGUGAUGGUACAUGAACCAAAACAAAAAGUAGAUUUAACAAGGUACCUAGAAAACCAAACAUUUCGUUUUGAUUAUGCCUUUGAUGACUCAGCUCCUAAUGAAAUGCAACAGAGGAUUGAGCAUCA | 10.2 |
| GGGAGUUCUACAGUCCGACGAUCCCUGCCCCUCCUCGGAGCCUGCUUGUGGAAUUCUUCCCCUUCGGGUGUGUGGUGGCAUUCCCCGCCACGUCCAAUGUGGACUCCAAAGGAUUUGUCCCUUCUUUGUCAUUUGAAAUGAAACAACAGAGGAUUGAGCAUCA | 0.152 |
| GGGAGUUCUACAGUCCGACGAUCCCUGGCCCCAGCAGCGGCGGCGGCGAGGCCCUGCGGAGCCCGCCAGCGCCCUCUCGGCCUCUUCACUUCUCUGACCGCGGUGUCCGGGACUACGUGAGAACCAUGAGUGGCAACAACUUGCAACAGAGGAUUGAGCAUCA | 0.106 |

Series 3
Target: CCND1, cyclin fold, Cln2 fusion (human)
Method: yeast growth competition, sequencing
Medium: yeast
Setting: weak parent motif
Reference: not given
Reading: higher = stronger binding
Starting sequence: SAMHD1 docking peptide (human); ASKSRVQLFKDDP
| Change | normalised enrichment score |
| --- | --- |
| S2K | 0.113 |
| F9Q | 0.274 |
| S2Y | 0.706 |
| D12H | 0.148 |
| D11N | 0.323 |
| K10P | 0.544 |
| D12E | 0.84 |
| V6Q | -0.46 |
| L8G | 0.301 |
| S2N | 0.205 |
| S4Q | 0.0333 |
| L8S | 0.106 |
| Q7S | -0.0756 |

Series 4
Target: Histone acetyltransferase KAT6A, winged helix 2, GST fusion (KAT6A, Homo sapiens, UniProt Q92794, residues 85-181)
Method: protein binding microarray
Form: double-stranded DNA, one strand shown
Medium: in vitro
Tested at: not given
Setting: 8-mer, flanks averaged, mean of 2 arrays, mostly near background
Reference: not given
Reading: higher = stronger binding
Construct (chain): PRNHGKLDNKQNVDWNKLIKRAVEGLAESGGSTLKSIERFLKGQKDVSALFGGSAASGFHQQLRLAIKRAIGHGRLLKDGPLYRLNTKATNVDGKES
| Oligonucleotide | E-score |
| --- | --- |
| CAGTAGTA | -0.107 |
| GTTTTTAA | 0.144 |
| GACCTCTC | 0.0316 |
| AAGACCAC | -0.0182 |
| ATGCCAAC | 0.0962 |
| GGAAGTTA | 0.112 |
| CTGCAGAA | 0.0506 |
| CTGATTAC | -0.077 |
| CGGCGCCA | 0.0961 |
| CGTGACGC | 0.00356 |
| TGCCAGCA | 0.156 |
| ACCTATCC | -0.166 |
| CTTTTAGC | -0.0619 |
